# Measurements gathered from unrelated publications.
# Parts stem from different laboratories: compare values within a part only.

# Set 1 — method: universal PBM; molecule type: double-stranded DNA, one strand shown; matrix: in vitro; tested at: 600 nM; reading: higher = stronger binding
# Target: Sal-like protein 4, full length isoform A (SALL4, Homo sapiens, UniProt Q9UJQ4, residues 1-1053)
# Sequence of UniProt Q9UJQ4 (whole entry, looked up): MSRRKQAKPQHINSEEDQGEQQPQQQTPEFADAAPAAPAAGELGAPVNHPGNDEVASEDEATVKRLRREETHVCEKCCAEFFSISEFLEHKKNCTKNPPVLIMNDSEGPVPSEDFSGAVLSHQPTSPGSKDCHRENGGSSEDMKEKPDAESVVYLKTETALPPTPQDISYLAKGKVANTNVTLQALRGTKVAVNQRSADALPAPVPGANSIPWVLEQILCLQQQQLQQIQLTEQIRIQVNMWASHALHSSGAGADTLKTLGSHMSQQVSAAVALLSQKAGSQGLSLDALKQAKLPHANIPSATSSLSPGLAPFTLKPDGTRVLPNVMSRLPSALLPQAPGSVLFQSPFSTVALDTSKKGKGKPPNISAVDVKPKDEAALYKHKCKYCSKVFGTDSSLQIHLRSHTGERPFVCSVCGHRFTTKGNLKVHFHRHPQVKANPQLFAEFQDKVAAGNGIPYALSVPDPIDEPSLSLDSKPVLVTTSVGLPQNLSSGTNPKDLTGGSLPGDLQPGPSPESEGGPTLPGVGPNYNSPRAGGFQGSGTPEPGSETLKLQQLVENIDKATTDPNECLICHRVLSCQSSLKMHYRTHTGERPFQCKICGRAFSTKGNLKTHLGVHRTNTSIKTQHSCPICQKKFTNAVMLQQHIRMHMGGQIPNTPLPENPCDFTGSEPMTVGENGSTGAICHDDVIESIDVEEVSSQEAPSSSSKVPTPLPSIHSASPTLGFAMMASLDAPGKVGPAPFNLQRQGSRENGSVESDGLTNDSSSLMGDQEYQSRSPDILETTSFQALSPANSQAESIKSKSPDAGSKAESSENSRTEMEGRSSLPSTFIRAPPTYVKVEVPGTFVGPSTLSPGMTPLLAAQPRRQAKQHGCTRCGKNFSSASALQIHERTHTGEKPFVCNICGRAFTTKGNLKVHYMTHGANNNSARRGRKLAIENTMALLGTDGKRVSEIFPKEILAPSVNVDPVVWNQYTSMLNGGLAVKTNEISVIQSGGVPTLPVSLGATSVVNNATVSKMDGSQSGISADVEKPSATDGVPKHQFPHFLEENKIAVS
# Setting: 8-mer, flanks averaged, mean of replicates
Sequence,E-score
AACCCCCA,-0.228
GCACCTAA,-0.0339
ATTATCTC,0.293
CCAAACGA,-0.0358
ATTCGCAG,0.11
GCCCTAGC,-0.166
GCGGCTGA,-0.284
CTGTCTGA,-0.0359

# Set 2 — method: protein-binding microarray; molecule type: double-stranded DNA, one strand shown; matrix: in vitro; tested at: 0.8 µM; setting: whole 60-bp probe, no competitor; reading: higher = stronger binding; all sequences stand within: … GTCTTGATTCGCTTGACGCTGCTG
# Target: Centromere-binding protein 1, full length, N-terminal tag (CBF1, Saccharomyces cerevisiae, UniProt P17106, residues 1-351)
# Sequence of UniProt P17106 (whole entry, looked up): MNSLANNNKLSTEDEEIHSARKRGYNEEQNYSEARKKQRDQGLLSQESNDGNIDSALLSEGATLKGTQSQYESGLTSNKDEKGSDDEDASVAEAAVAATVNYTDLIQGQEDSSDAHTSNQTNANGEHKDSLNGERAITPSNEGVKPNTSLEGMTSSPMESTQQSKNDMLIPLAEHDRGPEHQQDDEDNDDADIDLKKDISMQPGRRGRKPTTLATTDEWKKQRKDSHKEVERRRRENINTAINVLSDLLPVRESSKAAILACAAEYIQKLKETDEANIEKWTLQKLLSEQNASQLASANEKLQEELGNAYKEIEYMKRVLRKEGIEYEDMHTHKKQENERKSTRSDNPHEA
Sequence,fluorescence intensity [a.u.]
CTATTTAGATTATATCACGTAGCTATTGTACTATTC,584
CTAACATAAATAGTTGACGTGGTAAATTTTCATTTC,521
CTAGGCGAAACAAAGGTGATGAAAGTTTCTTCTTTC,517
GAATAGGATATCCGTCACCCGTGATTCCGTCGGTAG,952
CTAACACAAAATATACTCGTGCATTGAAGATGCTTC,604
GAATTTTCTACTCATAACCTCACGCAAAATAACTAG,546
CTATTAACTAGCGATGACGTGCTTCGATTGAGCTTC,524
CCTAACTACTATAGTTCTGATGCATAGCTTCGTACA,489

# Set 3 — effect on: enzyme activity; mode: inhibitor; tested at: 20 µM; setting: primary screen
# Target: Replicase polyprotein 1ab, main protease (rep, Severe acute respiratory syndrome coronavirus 2, UniProt P0DTD1)
Structure (SMILES),inhibition [%]
C=Cc1c(C)c2cc3nc(c(CC(=O)[O-])c4[n-]c(cc5nc(cc1[n-]2)C(C)=C5CC)c(C)c4C(=O)[O-])C(CCC(=O)[O-])C3C.[Cu+2] (stereo not drawn),26.7
NC(=O)c1cc[n+](CC2=C(C(=O)O)N3C(=O)[C@@H](NC(=O)Cc4cccs4)[C@H]3SC2)cc1,34.1
C=C(NNC(=S)NNC(=S)Nc1ccccc1Cl)c1ccccn1,31.8
O=c1c(O)cccc2cc(O)c(O)c(O)c12,101

# Set 4 — effect on: enzyme activity; mode: inhibitor; tested at: 20 µM
# Target: Replicase polyprotein 1ab, polymerase (rep, Severe acute respiratory syndrome coronavirus 2, UniProt P0DTD1)
Structure (SMILES),inhibition
CCn1c(-c2nonc2N)nc2c(C#CC(C)(C)O)ncc(OC[C@H]3CCCNC3)c21,1.62%
Fc1ccc2c(CCNCc3cccc(OCC(F)(F)C(F)F)c3)c[nH]c2c1,1.09%
C[C@H]([C@@H](O)c1ccc(O)cc1)N1CCC(Cc2ccccc2)CC1 (racemic),1.85%
N[C@@H]1CONC1=O,1.89%
CCOc1ccc(Cc2cc([C@@H]3O[C@H](CO)[C@@H](O)[C@H](O)[C@H]3O)ccc2Cl)cc1,4.9%
Cc1ccc(C23CNCC2C3)cc1 (stereo not drawn),-0.33%
CC1=NN=C(c2ccc(N)cc2)c2cc3c(cc2C1)OCO3,3.87%
O=c1ccc2cc3ccoc3cc2o1,-0.31%
CC(C)n1cnc2c(NCCc3ccc(O)cc3)nc(-c3csc4ccccc34)nc21,2.51%
c1cnc2cc3c(cc2n1)[C@@H]1CNC[C@H]3C1,-1.89%
COC(F)(F)C(Cl)Cl,0.83%
CC(=O)OCC1=C(C(=O)O)N2C(=O)[C@@H](N)[C@H]2SC1,-4.07%
N=C(N)SCCc1ccc(OCc2ccc([N+](=O)[O-])cc2)cc1,2.1%
COc1ccccc1N1CCN(CCCCNC(=O)c2ccc(-c3ccc(C(C)=O)cc3)cc2)CC1,0.55%
CC[C@H](C)[C@@H]1NC(=O)[C@H](Cc2ccc(OC)cc2)NC(=O)CCCSC[C@@H](C(=O)N2CCC[C@H]2C(=O)N[C@@H](CC(C)C)C(=O)NCC(N)=O)NC(=O)[C@H](CC(N)=O)NC(=O)[C@H](CCC(N)=O)NC1=O,8.35%
CCN(CC)CCNC(=O)COc1ccc(OC)cc1,2.81%
CCC(C)c1ccc(NC(=O)Cn2cnc3c2c(=O)n(C)c(=O)n3C)cc1 (stereo not drawn),3.74%
Nc1c2c(nc3ccccc13)CCCC2,-0.25%
Cc1[nH]cnc1-c1ccc(Cl)cc1,6.91%
N[C@@H](Cc1ccc(O)cc1)C(=O)NCC(=O)NCC(=O)O,-9.22%
O=C(CBr)N1CC([N+](=O)[O-])([N+](=O)[O-])C1,-2.58%
CC(ONC(=O)c1cc(C(F)(F)F)cc(C(F)(F)F)c1)C(=O)Nc1ccc(Cl)cc1 (stereo not drawn),-1.84%
CC[C@H](CC[C@@H](C)[C@H]1CC[C@H]2[C@@H]3CC=C4C[C@@H](O)CC[C@]4(C)[C@H]3CC[C@]12C)C(C)C,-3.79%
COC(=O)[C@H]1[C@H]2C[C@@H]3c4[nH]c5cc(OC)ccc5c4CCN3C[C@H]2C[C@@H](OC(=O)c2cc(OC)c(OC)c(OC)c2)[C@@H]1OC,-3.65%
CC(C)(C)c1ccc(C(=O)Nc2cn3cc(-n4ccnc4)ccc3n2)cc1,-6.81%

# Set 5 — method: protein-binding microarray; molecule type: double-stranded DNA, one strand shown; matrix: in vitro; tested at: 250 nM; setting: 60-bp whole probe; with: salmon DNA 0.4 mg/ml; relative to: random background probes; reading: higher = stronger binding
# Target: Interferon regulatory factor 5, full length, phosphomimetic (IRF5, Homo sapiens, UniProt Q13568-2, residues 1-514, K96S/S451D/S453D/S456D/S462D)
# All sequences stand within: GCCTAGCAC … GTGCTAGGTCTTGATTCGCTTGACGCTGCTG
Sequence,log fluorescence [z-score]
TTAGGTTGCGGTATCGGTTA,5.15
GACGGTTTCCTTTTCCCGAC,0.999
GACGGTTTCCTTTCCCGGAC,1.15
TCATCTCTTGTTCTCTCACT,0.744
GAAGGTCACAAAGACTTCAT,-0.372
GACGGTCTCGGTGTCGGGAC,0.0434
TCACCTCCCCCTCTGCCACT,-0.279
TTAGGTATCCTTTTCCTTTT,0.792

# Set 6 — cell line: HEK-293T; effect on: pseudovirus infection; method: FDA-approved drug library screen; organism: VSV pseudotyped with SARS-CoV-2 spike; tested at: 10 µM; time: 16 h; relative to: vehicle-treated
SMILES,GFP-positive cells [%]
CC(=O)O[C@H]1C[C@@H]2CC[C@@H]3[C@H](CC[C@@]4(C)[C@H]3C[C@H]([N+]3(C)CCCCC3)[C@@H]4OC(C)=O)[C@@]2(C)C[C@@H]1[N+]1(C)CCCCC1,92
c1ccc2[nH]c(-c3cscn3)nc2c1,77.8
Nc1ccncc1,98.8
CCCc1nc(C)c2c(=O)[nH]c(-c3cc(S(=O)(=O)N4CCN(CC)CC4)ccc3OCC)nn12,100

# A few entries again (set 4):
Structure (SMILES),inhibition
N=C(N)SCCc1ccc(OCc2ccc([N+](=O)[O-])cc2)cc1,2.1%
COc1ccccc1N1CCN(CCCCNC(=O)c2ccc(-c3ccc(C(C)=O)cc3)cc2)CC1,0.55%
CC[C@H](C)[C@@H]1NC(=O)[C@H](Cc2ccc(OC)cc2)NC(=O)CCCSC[C@@H](C(=O)N2CCC[C@H]2C(=O)N[C@@H](CC(C)C)C(=O)NCC(N)=O)NC(=O)[C@H](CC(N)=O)NC(=O)[C@H](CCC(N)=O)NC1=O,8.35%
CCN(CC)CCNC(=O)COc1ccc(OC)cc1,2.81%
